{"data": "Measured values pooled from the literature", "note": "Every numbered part comes from another study and shows a few of its results, in no order.", "UniProt Q13873, sequence (whole entry, looked up)": "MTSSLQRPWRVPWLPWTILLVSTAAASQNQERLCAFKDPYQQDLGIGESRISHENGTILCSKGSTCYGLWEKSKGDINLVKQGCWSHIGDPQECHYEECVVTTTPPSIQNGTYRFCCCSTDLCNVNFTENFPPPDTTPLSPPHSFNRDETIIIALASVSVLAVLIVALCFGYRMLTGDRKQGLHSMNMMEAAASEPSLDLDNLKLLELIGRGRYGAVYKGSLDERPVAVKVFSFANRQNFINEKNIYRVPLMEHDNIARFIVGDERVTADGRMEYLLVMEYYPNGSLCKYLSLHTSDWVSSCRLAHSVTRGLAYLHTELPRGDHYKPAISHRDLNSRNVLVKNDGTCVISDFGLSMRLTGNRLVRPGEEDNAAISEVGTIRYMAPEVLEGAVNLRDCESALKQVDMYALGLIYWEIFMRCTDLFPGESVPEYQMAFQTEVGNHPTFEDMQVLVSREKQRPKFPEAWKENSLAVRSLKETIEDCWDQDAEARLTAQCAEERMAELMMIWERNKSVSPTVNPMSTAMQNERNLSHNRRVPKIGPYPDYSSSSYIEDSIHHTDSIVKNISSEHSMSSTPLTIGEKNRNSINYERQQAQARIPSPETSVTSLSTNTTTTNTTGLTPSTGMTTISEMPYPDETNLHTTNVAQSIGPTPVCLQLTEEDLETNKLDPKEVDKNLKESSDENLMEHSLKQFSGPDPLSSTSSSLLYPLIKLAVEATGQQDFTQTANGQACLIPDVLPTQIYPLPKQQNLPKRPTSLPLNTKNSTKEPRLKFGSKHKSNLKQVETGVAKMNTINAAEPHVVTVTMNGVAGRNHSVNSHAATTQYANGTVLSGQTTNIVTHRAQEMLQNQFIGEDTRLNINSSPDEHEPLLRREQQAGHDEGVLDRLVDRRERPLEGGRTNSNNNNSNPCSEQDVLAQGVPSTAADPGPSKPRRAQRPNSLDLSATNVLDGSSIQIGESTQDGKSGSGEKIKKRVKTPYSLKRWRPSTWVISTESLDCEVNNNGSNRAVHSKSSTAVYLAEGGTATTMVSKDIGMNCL", "UniProt P08631, sequence (whole entry, looked up)": "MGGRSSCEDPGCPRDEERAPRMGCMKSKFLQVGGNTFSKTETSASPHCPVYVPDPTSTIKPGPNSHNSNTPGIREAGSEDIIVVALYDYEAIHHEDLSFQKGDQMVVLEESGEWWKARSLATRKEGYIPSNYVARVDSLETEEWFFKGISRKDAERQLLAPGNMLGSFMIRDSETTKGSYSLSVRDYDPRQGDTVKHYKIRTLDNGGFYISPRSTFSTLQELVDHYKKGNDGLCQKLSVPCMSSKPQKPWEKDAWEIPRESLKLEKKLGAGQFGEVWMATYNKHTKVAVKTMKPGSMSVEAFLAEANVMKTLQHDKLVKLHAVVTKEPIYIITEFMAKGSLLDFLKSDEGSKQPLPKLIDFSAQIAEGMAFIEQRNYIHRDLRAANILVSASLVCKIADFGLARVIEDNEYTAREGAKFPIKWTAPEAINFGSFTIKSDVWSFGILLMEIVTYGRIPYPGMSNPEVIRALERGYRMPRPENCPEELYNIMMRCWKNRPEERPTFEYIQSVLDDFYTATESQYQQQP", "UniProt O94806, sequence (whole entry, looked up)": "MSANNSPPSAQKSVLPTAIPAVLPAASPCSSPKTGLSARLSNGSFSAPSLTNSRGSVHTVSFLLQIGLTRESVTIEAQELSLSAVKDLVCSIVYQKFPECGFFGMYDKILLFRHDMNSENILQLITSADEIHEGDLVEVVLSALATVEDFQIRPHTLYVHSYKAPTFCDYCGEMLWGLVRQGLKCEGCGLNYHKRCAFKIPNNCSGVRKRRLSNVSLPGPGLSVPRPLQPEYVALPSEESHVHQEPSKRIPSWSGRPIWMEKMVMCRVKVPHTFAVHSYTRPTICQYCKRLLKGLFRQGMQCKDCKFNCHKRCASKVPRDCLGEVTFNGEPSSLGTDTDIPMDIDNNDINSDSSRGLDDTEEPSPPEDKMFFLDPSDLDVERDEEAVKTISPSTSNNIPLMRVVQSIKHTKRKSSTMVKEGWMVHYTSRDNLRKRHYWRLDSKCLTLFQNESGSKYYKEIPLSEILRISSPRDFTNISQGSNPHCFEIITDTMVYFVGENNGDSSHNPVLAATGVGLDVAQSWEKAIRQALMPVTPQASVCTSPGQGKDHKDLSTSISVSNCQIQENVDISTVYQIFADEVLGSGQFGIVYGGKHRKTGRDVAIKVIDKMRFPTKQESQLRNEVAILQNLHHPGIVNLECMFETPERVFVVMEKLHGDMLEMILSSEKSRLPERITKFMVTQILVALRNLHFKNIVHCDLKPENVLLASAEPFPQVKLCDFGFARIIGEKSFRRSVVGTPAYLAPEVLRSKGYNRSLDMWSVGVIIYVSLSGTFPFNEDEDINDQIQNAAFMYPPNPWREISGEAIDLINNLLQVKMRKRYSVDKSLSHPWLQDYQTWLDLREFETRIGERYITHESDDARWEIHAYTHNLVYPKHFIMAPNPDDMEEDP", "UniProt O75460, sequence (whole entry, looked up)": "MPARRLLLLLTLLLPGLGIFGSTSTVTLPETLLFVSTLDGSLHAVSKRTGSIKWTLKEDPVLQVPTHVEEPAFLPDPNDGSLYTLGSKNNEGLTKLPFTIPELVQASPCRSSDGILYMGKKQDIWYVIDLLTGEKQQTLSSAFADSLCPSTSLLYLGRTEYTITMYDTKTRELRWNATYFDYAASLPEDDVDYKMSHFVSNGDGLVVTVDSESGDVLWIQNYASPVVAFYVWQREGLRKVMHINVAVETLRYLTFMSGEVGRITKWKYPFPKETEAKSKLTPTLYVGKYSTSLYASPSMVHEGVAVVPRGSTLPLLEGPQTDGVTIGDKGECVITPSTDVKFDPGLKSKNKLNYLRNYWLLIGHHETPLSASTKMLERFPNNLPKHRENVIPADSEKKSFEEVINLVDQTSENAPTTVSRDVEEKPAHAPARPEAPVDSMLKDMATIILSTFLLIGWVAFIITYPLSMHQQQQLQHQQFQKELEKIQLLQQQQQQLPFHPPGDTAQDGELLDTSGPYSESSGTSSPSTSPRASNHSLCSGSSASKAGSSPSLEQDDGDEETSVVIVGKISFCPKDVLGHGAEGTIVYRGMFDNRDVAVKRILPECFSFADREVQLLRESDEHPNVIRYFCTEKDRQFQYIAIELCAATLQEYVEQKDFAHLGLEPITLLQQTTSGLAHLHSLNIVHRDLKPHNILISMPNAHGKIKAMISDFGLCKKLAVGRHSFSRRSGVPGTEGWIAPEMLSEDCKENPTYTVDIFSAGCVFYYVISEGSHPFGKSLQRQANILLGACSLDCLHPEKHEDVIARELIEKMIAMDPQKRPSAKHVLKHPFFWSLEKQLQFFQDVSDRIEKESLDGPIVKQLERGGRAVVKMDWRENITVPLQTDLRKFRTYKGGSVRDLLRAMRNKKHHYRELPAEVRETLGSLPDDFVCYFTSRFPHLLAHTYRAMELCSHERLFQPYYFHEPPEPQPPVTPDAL", "UniProt Q9H1R3, sequence (whole entry, looked up)": "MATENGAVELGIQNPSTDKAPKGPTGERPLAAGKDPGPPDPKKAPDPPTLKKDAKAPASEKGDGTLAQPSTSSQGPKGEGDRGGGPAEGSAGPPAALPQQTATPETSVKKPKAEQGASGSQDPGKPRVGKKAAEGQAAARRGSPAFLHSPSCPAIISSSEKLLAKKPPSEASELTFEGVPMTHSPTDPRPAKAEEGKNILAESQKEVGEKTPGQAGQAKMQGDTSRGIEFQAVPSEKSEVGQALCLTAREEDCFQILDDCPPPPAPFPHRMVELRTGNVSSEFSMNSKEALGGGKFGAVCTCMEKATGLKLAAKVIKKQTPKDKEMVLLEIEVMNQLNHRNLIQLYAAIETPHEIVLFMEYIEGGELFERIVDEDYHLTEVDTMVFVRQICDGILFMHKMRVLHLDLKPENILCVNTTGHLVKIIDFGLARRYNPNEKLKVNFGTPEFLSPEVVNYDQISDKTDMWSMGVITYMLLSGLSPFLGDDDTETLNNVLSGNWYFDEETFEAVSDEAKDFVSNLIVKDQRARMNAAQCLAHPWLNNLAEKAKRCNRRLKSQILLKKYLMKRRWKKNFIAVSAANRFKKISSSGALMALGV"}
{"data": "Block 1", "target": "PABPC1L2, full length, GST fusion (mouse, UniProt A0ABA7IW68)", "technique": "RNAcompete", "molecule type": "RNA", "matrix": "in vitro", "tested at": "20 nM", "setting": "7-mer, probes averaged, single round", "baseline": "mean of 7-mers", "direction": "higher = stronger binding", "Target sequence (chain)": "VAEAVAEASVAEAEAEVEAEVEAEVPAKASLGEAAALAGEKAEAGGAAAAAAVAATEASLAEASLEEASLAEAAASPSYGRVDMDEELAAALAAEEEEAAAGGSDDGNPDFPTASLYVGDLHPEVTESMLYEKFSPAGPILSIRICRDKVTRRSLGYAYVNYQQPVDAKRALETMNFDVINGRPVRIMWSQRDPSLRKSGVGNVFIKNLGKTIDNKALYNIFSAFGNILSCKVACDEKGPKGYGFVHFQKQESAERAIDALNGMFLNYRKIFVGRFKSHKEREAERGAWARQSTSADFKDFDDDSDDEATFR"}
{"Strand": "CUUAUCA", "7-mer Z-score": -0.153}
{"Strand": "GAGGGGC", "7-mer Z-score": 0.242}
{"Strand": "CGGACUC", "7-mer Z-score": -0.142}
{"Strand": "AUCCGCU", "7-mer Z-score": -0.289}
{"Strand": "UGGGUCG", "7-mer Z-score": -0.0174}
{"Strand": "AGCGUAC", "7-mer Z-score": -0.159}
{"Strand": "CCCUCAC", "7-mer Z-score": -0.311}
{"Strand": "UUCGACC", "7-mer Z-score": -0.374}
{"data": "Block 2", "target": "Interferon regulatory factor 3, full length, phosphomimetic (IRF3, Homo sapiens, UniProt Q14653, residues 1-427, S386D/S396D/S398D/S402D/T404D/S405D)", "technique": "protein-binding microarray", "molecule type": "double-stranded DNA, one strand shown", "matrix": "in vitro", "tested at": "2540 nM top", "setting": "60-bp whole probe", "together with": "salmon DNA 0.4 mg/ml", "baseline": "random background probes", "direction": "higher = stronger binding", "shared flanks, not repeated": "GCCTAGCAC … GTGCTAGGTCTTGATTCGCTTGACGCTGCTG", "Construct (chain)": "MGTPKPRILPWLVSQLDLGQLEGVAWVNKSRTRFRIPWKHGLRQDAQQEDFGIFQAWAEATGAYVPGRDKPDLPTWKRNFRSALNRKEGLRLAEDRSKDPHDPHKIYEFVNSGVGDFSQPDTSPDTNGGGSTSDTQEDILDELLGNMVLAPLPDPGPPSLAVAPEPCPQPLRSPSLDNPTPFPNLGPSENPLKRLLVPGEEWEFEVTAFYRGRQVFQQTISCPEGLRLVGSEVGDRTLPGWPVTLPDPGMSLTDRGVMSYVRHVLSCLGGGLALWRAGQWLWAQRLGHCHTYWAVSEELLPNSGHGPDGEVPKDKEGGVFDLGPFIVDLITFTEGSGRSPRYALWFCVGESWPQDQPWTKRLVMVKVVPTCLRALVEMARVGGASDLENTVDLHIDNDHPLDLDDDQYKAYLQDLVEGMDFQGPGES"}
{"Strand": "TGAGATTTCAGTTCCGATTA", "fitted relative affinity [z-score]": 3.59}
{"Strand": "TTACGTATCGGACTGGGTTA", "fitted relative affinity [z-score]": 1.43}
{"Strand": "GACGATTTCAATTTCGAGAC", "fitted relative affinity [z-score]": 2.63}
{"Strand": "TTTGCTCTGTGCATAGGTCT", "fitted relative affinity [z-score]": -0.39}
{"Strand": "GACGGTCTCTTTTTCCTGAC", "fitted relative affinity [z-score]": 1.75}
{"Strand": "GACGATTTCCTTTCCCTGAC", "fitted relative affinity [z-score]": 5.72}
{"Strand": "TTAGGACTGGGTACCGGTTA", "fitted relative affinity [z-score]": -0.0309}
{"Strand": "TGTCATTTACATTTTAGTAG", "fitted relative affinity [z-score]": 1.33}
{"data": "Block 3", "target": "Ephrin type-A receptor 3 (EPHA3, Homo sapiens, UniProt P29320)", "observed": "enzyme activity", "mode": "inhibitor", "tested at": "0.5 µM", "baseline": "control", "UniProt P29320, sequence (whole entry, looked up)": "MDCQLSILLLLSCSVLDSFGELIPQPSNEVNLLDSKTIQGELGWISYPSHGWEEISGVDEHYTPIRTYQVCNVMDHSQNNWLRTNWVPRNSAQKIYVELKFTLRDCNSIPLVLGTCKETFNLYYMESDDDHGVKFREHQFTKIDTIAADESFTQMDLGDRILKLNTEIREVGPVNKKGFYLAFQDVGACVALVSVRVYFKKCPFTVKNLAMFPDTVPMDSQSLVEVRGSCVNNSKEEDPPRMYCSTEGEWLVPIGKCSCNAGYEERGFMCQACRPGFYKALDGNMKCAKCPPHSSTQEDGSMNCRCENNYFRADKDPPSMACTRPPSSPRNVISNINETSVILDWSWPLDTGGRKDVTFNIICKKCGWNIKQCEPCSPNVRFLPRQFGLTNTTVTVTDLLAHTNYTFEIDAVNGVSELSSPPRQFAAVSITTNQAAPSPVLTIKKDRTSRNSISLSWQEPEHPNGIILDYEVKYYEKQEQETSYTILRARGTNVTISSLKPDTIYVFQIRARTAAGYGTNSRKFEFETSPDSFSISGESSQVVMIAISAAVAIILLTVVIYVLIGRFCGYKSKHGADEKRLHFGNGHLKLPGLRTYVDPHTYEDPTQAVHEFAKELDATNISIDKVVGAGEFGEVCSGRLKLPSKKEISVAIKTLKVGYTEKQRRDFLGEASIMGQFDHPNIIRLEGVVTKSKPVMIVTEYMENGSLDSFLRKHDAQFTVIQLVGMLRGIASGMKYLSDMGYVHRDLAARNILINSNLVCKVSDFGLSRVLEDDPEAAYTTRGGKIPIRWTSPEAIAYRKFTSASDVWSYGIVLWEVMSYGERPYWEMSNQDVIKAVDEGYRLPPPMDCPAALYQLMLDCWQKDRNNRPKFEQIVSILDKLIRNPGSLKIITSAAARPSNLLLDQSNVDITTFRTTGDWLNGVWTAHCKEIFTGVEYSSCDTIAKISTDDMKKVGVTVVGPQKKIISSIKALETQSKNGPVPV"}
{"SMILES": "O=C(CCCc1ccc(-c2ccccc2F)cc1)Nc1ccc(O)cc1", "remaining activity": "100%"}
{"SMILES": "Cc1nc(-c2ccccc2)c(-c2ccncc2)o1", "remaining activity": "109%"}
{"SMILES": "COc1ccc(CNC(=O)Nc2ncc([N+](=O)[O-])s2)cc1", "remaining activity": "111%"}
{"SMILES": "OCC(O)CCON=C1C(c2c(O)[nH]c3ccccc23)=Nc2ccccc21 (centres unmarked)", "remaining activity": "69%"}
{"data": "Block 4", "Compound": "CO[C@H]1CC[C@H](CNc2ccc(S(=O)(=O)NC(=O)c3ccc(N4CCN(CC5=C(c6ccc(Cl)cc6)CC(C)(C)CC5)CC4)cc3Oc3cnc4[nH]ccc4c3)cc2[N+](=O)[O-])CC1", "observed": "cell-free assay", "technique": "competition with immobilised ligand", "tested at": "1 µM"}
{"target": "Dual specificity mitogen-activated protein kinase kinase 1 (MAP2K1, Homo sapiens, UniProt Q02750)", "remaining binding": "99%"}
{"target": "Serine/threonine-protein kinase D3 (PRKD3, Homo sapiens, UniProt O94806)", "remaining binding": "100%"}
{"target": "Cyclin-dependent kinase 13 (CDK13, Homo sapiens, UniProt Q14004)", "remaining binding": "100%"}
{"target": "Serine/threonine-protein kinase SIK2 (SIK2, Homo sapiens, UniProt Q9H0K1)", "remaining binding": "100%"}
{"target": "Bone morphogenetic protein receptor type-2 (BMPR2, Homo sapiens, UniProt Q13873)", "remaining binding": "100%"}
{"target": "Myosin light chain kinase 2, skeletal/cardiac muscle (MYLK2, Homo sapiens, UniProt Q9H1R3)", "remaining binding": "66%"}
{"target": "Serine/threonine-protein kinase/endoribonuclease IRE1 (ERN1, Homo sapiens, UniProt O75460)", "remaining binding": "89%"}
{"target": "Receptor-type tyrosine-protein kinase FLT3 (FLT3, Homo sapiens, UniProt P36888, D835H)", "remaining binding": "78%"}
{"target": "Tyrosine-protein kinase HCK (HCK, Homo sapiens, UniProt P08631)", "remaining binding": "71%"}
{"note": "Repeated from above (block 4):"}
{"target": "Serine/threonine-protein kinase SIK2 (SIK2, Homo sapiens, UniProt Q9H0K1)", "remaining binding": "100%"}
{"target": "Bone morphogenetic protein receptor type-2 (BMPR2, Homo sapiens, UniProt Q13873)", "remaining binding": "100%"}
{"target": "Cyclin-dependent kinase 13 (CDK13, Homo sapiens, UniProt Q14004)", "remaining binding": "100%"}
